Measured values of several laboratories.
Lines come from different studies, so protocols differ. ± gives the spread as reported.
Organism: Leishmania donovani

SMILES | test | test system | setting | scale | endpoint | value
CCCCOC(=O)/C=C/c1ccc(O)c(O)c1 | – | MHOM/ET/67/L-82 | – | relative to: IC50 L6 cells over IC50 amastigotes | selectivity index | 20
CCOC(=O)C(CC)NC(=O)CN1C(=O)S/C(=C\c2ccc(OC)cc2)C1=O (stereo not shown) | parasite growth | – | 72 h, intracellular, amastigote | – | IC50 | > 10 µM
CCCCCCCCOC(=O)/C=C/c1ccc(O)c(O)c1 | – | MHOM/ET/67/L-82 | concentration not given, axenic amastigotes, active if IC50 < 10 µM | – | antileishmanial activity | active
CCOC(=O)C(CC)NC(=O)CN1C(=O)S/C(=C\c2ccc([N+](=O)[O-])cc2)C1=O (stereo not shown) | parasite growth, resazurin | – | promastigote | – | IC50 | > 100 µM
CC/C(=C\c1ccc(OCC(=O)NC(C(=O)N2CCOCC2)c2ccccc2)cc1)[N+](=O)[O-] (stereo not shown) | – | macrophages, intracellular amastigotes | 6.25 µM, 72 h | – | inhibition | 46.8%
CC(=O)Oc1ccc(Cn2ccc(=O)[nH]c2=O)cc1C1OC(c2ccccc2)=NN1C(C)=O (stereo not shown) | parasite growth, SYBR Green | RAW264.7 | intracellular, amastigote | – | IC50 | > 100 µM
CCCCOC(=O)/C=C/c1ccc(O)c([N+](=O)[O-])c1 | – | MHOM/ET/67/L-82 | – | relative to: IC50 L6 cells over IC50 amastigotes | selectivity index | 355
Cc1nc(C)c(C(=O)Nc2ccc(F)c(-c3nc4ncc(-c5ccccn5)cn4n3)c2)o1 | – | primary mouse macrophages, intracellular amastigotes | – | – | EC99 | 42 ± 5.6 nM
CCCOC(=O)/C=C/c1ccc(O)c(O)c1 | – | MHOM/ET/67/L-82 | concentration not given, axenic amastigotes, active if IC50 < 10 µM | – | antileishmanial activity | active
CCCCCC1CC2CCCC3CC(C)N=C(N1)N32 (stereo not shown) | parasite growth, Alamar Blue | promastigotes | – | – | IC90 | 20.9 µM
CCOC(=O)CNC(=O)CN1C(=O)S/C(=C\c2ccc(C)cc2)C1=O | parasite growth | – | 72 h, intracellular, amastigote | – | IC50 | > 10 µM
CC(C)OC(=O)/C=C/c1ccc(O)c(O)c1 | – | MHOM/ET/67/L-82 | concentration not given, axenic amastigotes, active if IC50 < 10 µM | – | antileishmanial activity | active
CCC(NC(=O)CN1C(=O)N/C(=C\c2ccc(C)cc2)C1=O)C(=O)OC (stereo not shown) | parasite growth | – | 24 h, intracellular, amastigote | – | IC50 | 4.87 µM
CC/C(=C\c1ccc(OCC(=O)NC(C(=O)N2CCSCC2)c2ccccc2)cc1)[N+](=O)[O-] (stereo not shown) | – | macrophages, intracellular amastigotes | 12.5 µM, 72 h | – | inhibition | 90.3%
CCOC(=O)C(C)NC(=O)CN1C(=O)N/C(=C\c2ccc(C)cc2)C1=O (stereo not shown) | parasite growth, resazurin | – | promastigote | – | IC50 | > 100 µM
CCCCCCCCCC1CC2CCC3CC(CCCCCCCCC)NC(=N1)N23 (stereo not shown) | parasite growth, Alamar Blue | promastigotes | – | – | IC90 | 11.3 µM

Repeated from above:
SMILES | test | test system | setting | scale | endpoint | value
CC(C)OC(=O)/C=C/c1ccc(O)c(O)c1 | – | MHOM/ET/67/L-82 | concentration not given, axenic amastigotes, active if IC50 < 10 µM | – | antileishmanial activity | active
CCC(NC(=O)CN1C(=O)N/C(=C\c2ccc(C)cc2)C1=O)C(=O)OC (stereo not shown) | parasite growth | – | 24 h, intracellular, amastigote | – | IC50 | 4.87 µM
